Results gathered from unrelated publications.
Lines come from different studies, so protocols differ. Values joined by “and” are separate records of one study, mostly repeats; a detail may differ. ± marks the error that the study gave.

COc1cccc2c1C(=O)c1c(O)c3c(c(O)c1C2=O)C[C@@](O)(C(=O)CO)C[C@@H]3O[C@H]1C[C@H](N)[C@H](O)[C@H](C)O1  point of departure (HepG2; item: metallothionein protein; 24 h, distribution mode 1): 0.0282 µM
CCCCCCCCCCCCCCCC(=O)NCCO  activity score (human iPSC-derived cardiomyocytes; MyBP-C/MYH ratio, plate-normalised SD score; concentration not given, primary screen; direction not given): 4
Nc1ncnc2c1ncn2[C@@H]1O[C@H](CO)[C@@H](O)[C@H]1O  viability (activated human T cells; 316 nM, 72 h; higher = more viable cells): 87.2 a.u. and 82.9 a.u. and 84.1 a.u.
Cc1cccc(-c2[nH]c(CNc3ccccc3F)nc2-c2ccc3ncnn3c2)n1  viability (MM1.S pomalidomide-resistant; XTT; 2.25 µM): 29% and 50% and 37%
C#CCOc1cc(C(=O)Nc2cc(OCCN)c3ccccc3n2)nc(C(=O)Nc2cc(OCCN)c3ccccc3n2)c1  selectivity ratio (U2OS; cell viability, CellTiter-Glo; 72 h; baseline: IC50 U2OS over WI-38): 0.8
Cc1cnc2ccc3c(c2n1)N1CCC(O)N=C1N3C (stereo not shown)  relative colony forming efficiency (BALB/c 3T3; 50 µM; baseline: solvent control): 0%
NCCCOc1cc(NC(=O)c2cc(OCCN)cc(C(=O)Nc3cc(OCCCN)c4ccccc4n3)n2)nc2ccccc12  selectivity ratio (U2OS; cell viability, CellTiter-Glo; 72 h; baseline: IC50 U2OS over WI-38): 0.8
C[C@H]1[C@@H](O)O[C@@H]2O[C@@]3(C)CC[C@H]4[C@H](C)CC[C@@H]1[C@@]24OO3  early apoptotic cells (THP-1; annexin V/PI flow cytometry, item: annexin V+/PI-; 0.4 µM, 24 h): 2.1%
CC(=O)[C@H]1CC[C@H]2[C@@H]3CCC4=CC(=O)CC[C@]4(C)[C@H]3CC[C@]12C  activity score (human iPSC-derived cardiomyocytes; MyBP-C/MYH ratio, plate-normalised SD score; concentration not given, primary screen; direction not given): -3.6
CC(C)(c1ccc(O)cc1)c1ccc(O)cc1  G1 phase cells (HepG2 spheroids; Hoechst flow cytometry; 10 µM, 24 h): 73.2 ± 5.21%
CCCCc1nc(Cl)c(CO)n1Cc1ccc(-c2ccccc2-c2nn[nH]n2)cc1  log2 fold change (human PBMC; RNA-seq, item: CD163 mRNA; 10 µg/mL, 24 h; baseline: untreated control): -1.85
COc1cc2ncnc(Nc3ccc(Oc4ccccc4)c(C)c3C)c2cc1OC.Cl  average fractional effect (LoVo (KRAS G13D); cell viability, resazurin; 0.3 µM, 72 h, added: trametinib 0 nM; baseline: DMSO): 13%
CCn1cc(-c2cc(Cn3ccoc3=N)cc3c2CCN([C@@H](C)c2cc(OC)ccn2)C3=O)c(C(F)(F)F)n1  EC50 (SNU478; cell growth; 120 h): 4.08 nM
O=c1[nH]c(=O)c2cc(S(=O)(=O)Nc3ccc(N4CCCCCC4)cc3)ccc2[nH]1  time to 50% relaxation (adult rat ventricular myocytes; 10 µM; baseline: basal): 130 ± 9%
CN(c1ccccc1)S(=O)(=O)c1nnc(NC(=O)c2ccccc2)s1  efficacy (C127 LDR GFP reporter cells; silenced GFP reporter induction, activator, high-content imaging; retest, two-run mean): 180%
C=CC(=O)N1[C@@H](c2ccc3c(c2)OCO3)c2[nH]c3ccccc3c2C[C@H]1C(=O)NC  neuron degeneration (rat DRG neurons; 0.1235 µM, 48 h, added: vincristine 40 nM): 71.5% and 77.6%
CC(=O)c1nn(-c2ccc(Cl)cc2)/c(=N/N=C(\C)c2ccc(NC(=O)c3ccccc3)cc2)s1  toxicity (HepG2; 5 µM): 96.2% and 96.9%
O=C1CN(c2nc(-c3ccccc3)c3cc(Cl)ccc3n2)c2ccccc2N1  efficacy (C127 LDR GFP reporter cells; silenced GFP reporter induction, activator, high-content imaging; retest, two-run mean): 34%
CCCc1cc(=O)nc(SCCCC(=O)Nc2ccc(F)cc2)[nH]1  inhibition (cells, COS-1, expressing proMMP-9; cell migration, 2D collagen dot migration; 50 µM, 18 h): 68 ± 3%
CC/C=C\C/C=C\C/C=C\C/C=C\C/C=C\C/C=C\CCC(=O)O  activity score (human iPSC-derived cardiomyocytes; MyBP-C/MYH ratio, plate-normalised SD score; concentration not given, primary screen; direction not given): 3.5
Nc1ncnc2c1ncn2[C@@H]1O[C@H](CO)[C@@H](O)[C@H]1O  EC50 (HEK293, empty vector; calcium mobilization): 1090 nM
O=C(O)COC(=O)Cc1ccccc1Nc1c(Cl)cccc1Cl  activity score (human iPSC-derived cardiomyocytes; MyBP-C/MYH ratio, plate-normalised SD score; concentration not given, primary screen; direction not given): 4
COc1ccc2c(C)cc(SCC(=O)N(C)C3CCS(=O)(=O)C3)nc2c1 (stereo not shown)  efficacy (C127 LDR GFP reporter cells; silenced GFP reporter induction, activator, high-content imaging; retest, two-run mean): 20%
CC(C)(C)CC(C)(C)c1ccc(O)c(Cc2ccc(Cl)cc2Cl)c1  activity score (human iPSC-derived cardiomyocytes; MyBP-C/MYH ratio, plate-normalised SD score; concentration not given, primary screen; direction not given): 12.9
CC(C)NCC(O)c1ccc(O)c(O)c1 (stereo not shown)  sarcomere length (mouse ventricular cardiomyocytes; dose not given, 0.095 s): 1.73 µm
Nc1nccs1  MyBP-C level (MYBPC3 iPSC cardiomyocytes; plate-normalised; concentration not given, 24 h, hit retest): 72.6%
O=C(COc1ccc(Cl)cc1)NC1CCC(NC(=O)COc2ccc(Cl)cc2)CC1 (stereo not shown)  mitochondrial-nuclear distance (MFN2-deficient and wild-type U2OS; PGL-induced mitochondrial distribution; 200 nM, 6 h, added: PGL): inhibited
COc1ccnc(CSC(N)=Nc2ccccc2OC)c1.Cl  efficacy (C127 LDR GFP reporter cells; silenced GFP reporter induction, activator, high-content imaging; retest, two-run mean): 130%
COc1ccc(-n2nc(C(C)=O)s/c2=N\N=C(/C)c2ccc(NC(=O)c3ccc(C)cc3)cc2)cc1  toxicity (HepG2; 1.25 µM): 86.6%
Cn1cc(-n2cnc3c(NCc4nc5cc(Cl)c(Cl)cc5[nH]4)nc(N4CCOCC4)nc32)cn1  luminescence signal (MDA-MB-231; cell viability, CellCounting-Lite; 0.9145 nM, 37 °C; higher = more viable cells): 448000 a.u. and 425000 a.u. and 481000 a.u.
Nc1ncnc2c1ncn2[C@@H]1O[C@H](COP(=O)(O)OP(=O)(O)OP(=O)(O)O)[C@@H](O)[C@H]1O  IL-1β release (THP-1 wild type, PMA-differentiated, Pam3CSK4-primed; inducer, ELISA; concentration not given): 3340 pg/mL and 3160 pg/mL and 2610 pg/mL
Cn1c(Nc2nc3ccc(C(F)(F)F)cc3s2)nc2cc(C(=O)NCCOCCO)ccc21  fold change (SH-SY5Y; RNA-seq, item: SPHK1 mRNA; 5 µM, 5 h; baseline: untreated cells): 2.53
CCn1cc(-c2cc(Cn3ccnc3)cc3c2CCN([C@H](c2cc(OC)ccn2)C2CC2)C3=O)c(C(F)(F)F)n1  EC50 (PECAPJ15; cell growth; 120 h): 1.25 nM
Br.N=c1n(CC(=O)c2ccc([N+](=O)[O-])cc2)c2ccccc2n1Cc1ccccc1Cl  efficacy (C127 LDR GFP reporter cells; silenced GFP reporter induction, activator, high-content imaging; retest, two-run mean): 42%
c1ccc2[nH]ccc2c1  mRNA level, LS mean (HCT-8; RNA-seq, item: CREBRF; concentration not given): 17 counts per million
Cn1cc(Nc2nccc(-c3ccc4c(c3)CN(C3COC3)CC[C@H]4NC(=O)c3cn(C(C)(C)C)nn3)n2)cn1  pathway activation z-score (mouse splenic B cells; item: α-Adrenergic signalling; 30 mg/kg, IgD-activated in vivo; baseline: vehicle, direction not given): 2.45
C=CC1=C(C)c2cc3[n-]c(cc4nc(cc5[n-]c(cc1n2)c(C)c5C=C)C(C)=C4CCC(=O)O)c(CCC(=O)O)c3C.[Zn+2]  fold change (SH-SY5Y; RNA-seq, item: TRAF1 mRNA; 5 µM, 5 h; baseline: untreated cells): 3.55
CC[C@H](C)N(CC(=O)N(CC(=O)N(CC(=O)N(CC(=O)N(CC(=O)N(CC(=O)N(CC(N)=O)[C@@H](C)c1ccccc1)[C@@H](C)c1ccccc1)[C@@H](C)CC)[C@@H](C)c1ccccc1)[C@@H](C)c1ccccc1)[C@@H](C)CC)C(=O)CNCCCCN  cytokine release (THP-1 macrophages; ELISA, item: IL-1β, IL-6, IL-8; 2, 10, 50 µM, 72 h, added: LPS 2 ng/mL): decreased
COc1cnc2cccc(N3CCc4c(cc(Cn5ccnc5C)cc4-c4cn(C)nc4C(F)(F)F)C3=O)c2c1  EC50 (EBC-1; cell growth, inhibitor; 120 h): > 30000 nM
CC/C(=N\NC(=O)NCc1cccc(O)c1)c1ccc(O)c(C)c1O  YAP protein level (SK-OV-3; Western blot; 3D culture in gellan gum; 5 µM, 1 h, unit not given; baseline: β-actin): 0.98 ± 0.25

Repeated from above:
COc1ccc(-n2nc(C(C)=O)s/c2=N\N=C(/C)c2ccc(NC(=O)c3ccc(C)cc3)cc2)cc1  toxicity (HepG2; 1.25 µM): 86.6%
Cn1cc(-n2cnc3c(NCc4nc5cc(Cl)c(Cl)cc5[nH]4)nc(N4CCOCC4)nc32)cn1  luminescence signal (MDA-MB-231; cell viability, CellCounting-Lite; 0.9145 nM, 37 °C; higher = more viable cells): 448000 a.u. and 425000 a.u. and 481000 a.u.
Nc1ncnc2c1ncn2[C@@H]1O[C@H](COP(=O)(O)OP(=O)(O)OP(=O)(O)O)[C@@H](O)[C@H]1O  IL-1β release (THP-1 wild type, PMA-differentiated, Pam3CSK4-primed; inducer, ELISA; concentration not given): 3340 pg/mL and 3160 pg/mL and 2610 pg/mL
